Experimental data of several laboratories.
Lines come from different studies, so protocols differ. Several values in a cell are separate wells, animals, samples, runs or records. ± gives the spread as reported.

CC(C)(C)C1CCc2c(sc3nc(SCCN4CCCC4)nc(N)c23)C1 (stereo not shown) gave a metabolized compound of < 25% and 23% (human liver microsomes; 30 min).
The efflux ratio of CN(C)CC1CCCCC1(O)c1cccc(O)c1 (stereo not shown) is reported as 0.9 (Caco-2; 1 µM, 3 h, pH 7.4).
Cc1ccc2nc(C)c(C(=O)NCc3ccc(C(F)(F)F)cc3)n2c1 gave a CLint of 141 mL/min/g protein (marmoset liver microsomes).
Under “volume of distribution at steady state”, N[C@]1(c2ccccc2Cl)CCC[C@H](O)C1=O is recorded as 6.16 ± 0.476 L/kg (Wistar rat; intravenous, 20 mg/kg).
O=C1CC(=O)N(c2ccccc2)c2cc(Cl)ccc2N1 has a Cmax of 4100 nM (C57BL/6 mice, whole blood; oral, 3 mg/kg).
For Nc1nc(SCCCN2CCCCC2)nc2sc3c(c12)CCC(c1ccccc1)C3 (stereo not shown), the metabolized compound was 22% and < 25% (human liver microsomes; 30 min).
COc1ccc(-n2cc(C(=O)N3C[C@]4(OC(=O)c5ccccc5NC(C)=O)CC[C@H](OC)[C@@]56[C@@H]4C[C@@H]([C@@H]35)[C@@]3(O)C[C@H](OC)[C@H]4C[C@@H]6[C@]3(O)[C@H]4OC)nn2)cc1 gave an MRT(0-t) of 19.2 min (Sprague-Dawley rat, plasma; intravenous, 2 mg/kg).
With CC(c1ccc(Cl)cc1F)N1CCCC(n2c(=O)[nH]c3cc(Cl)c(Cl)cc32)CC1 (stereo not shown) the concentration was 493 nM (male C57BL/6 mouse, brain; intraperitoneal, 3 mg/kg, 1 h).
The metabolized compound of CCC1CCc2c(sc3nc(SCCCN4CCCCC4)nc(N)c23)C1 (racemic) is reported as 52% (mouse liver microsomes; 30 min).
For O=C(Cc1cccs1)N[C@@H]1C(=O)N2C(C(=O)O)=C(CSc3cccc[n+]3[O-])CS[C@H]12, plasma stability read “stable” (mouse plasma; 37 °C).

Some of these lines once more:
O=C1CC(=O)N(c2ccccc2)c2cc(Cl)ccc2N1 has a Cmax of 4100 nM (C57BL/6 mice, whole blood; oral, 3 mg/kg).
